Published values collected from several papers.
Each line is one published result; not all experiments were run side by side. ± gives the spread as reported.

Compound	test	test system	conditions	scale	endpoint	value
CC(C)CC(=O)OC[C@H]1O[C@@](C#N)(c2ccc3c(N)ncnn23)[C@H](O)[C@@H]1O		dog plasma	9 µM		fraction unbound	0.278
CCc1ccc(CC/C=C/c2ccc3c(c2)C(=O)CC3)cc1		Sprague-Dawley rat, male	oral, 450 mg/kg/day, 14 days		AST serum activity	125 U/L
CCN(CCO)CCCC(C)Nc1ccnc2cc(Cl)ccc12 (centres unmarked)		newly diagnosed glioblastoma patients	oral, 800 mg/dose, grade 2, with: radiotherapy and temozolomide		fatigue patients	66%
CC/C(=C(\c1ccccc1)c1ccc(OCCN(C)C)cc1)c1ccccc1		CD-1 mouse, male, plasma	intraperitoneal, 10 mg/kg		half-life	11.2 h
C[C@@H](NC(=O)N1C(=O)[C@H](Cc2ccnc(N)c2)[C@H]1C(=O)O)C1CCCCC1		healthy adult Chinese volunteers	continuous intravenous infusion, 1.0 mg/kg/h, 5-day infusion, CTCAE 5.0 grading		incidence of moderate AEs	0%
CC(C)C[C@H](NC(=O)[C@H](CCCCN)NC(=O)OCC1c2ccccc2-c2ccccc21)C(=O)N[C@H](C(=O)N[C@@H](Cc1ccccc1)C(=O)N[C@@H](Cc1ccccc1)C(=O)N[C@@H](CCCCN)C(=O)NCC(=O)N[C@@H](Cc1ccccc1)C(=O)N[C@@H](C)C(=O)N[C@@H](Cc1c[nH]c2ccccc12)C(=O)N[C@@H](CC(N)=O)C(=O)N[C@H](C(=O)N[C@H]1CSSC[C@@H](C(=O)N[C@@H](Cc2c[nH]cn2)C(=O)N[C@@H](CCCNC(=N)N)C(=O)N[C@@H](CCCNC(=N)N)C(=O)N[C@@H](C)C(=O)N[C@@H](CC(N)=O)C(N)=O)NC(=O)[C@H](C(C)C)NC(=O)[C@H](CCCNC(=N)N)NC(=O)[C@H](C(C)C)NC(=O)CNC(=O)[C@H](CC(N)=O)NC(=O)[C@H](CCCNC(=N)N)NC(=O)[C@H](Cc2ccc(O)cc2)NC(=O)[C@H](C(C)C)NC1=O)C(C)C)C(C)C	circular dichroism, measured: β-Turn	PBS	80 µM, pH 7.4		secondary structure content	19%
COc1ccc(-c2c(-c3ccc(C#N)c(F)c3)nc(N3CCC(N)CC3)n(C)c2=O)cc1F	measured: decreased appetite	neuroendocrine neoplasm patients	oral, 60 mg, dose expansion		grade 3-4 TRAE incidence	0%
CCN1[C@@H](C(=O)NC23CCC(C(=O)O)(CC2)CC3)[C@H](c2cccc(Cl)c2F)[C@]2(C(=O)Nc3cc(Cl)ccc32)C12CCCCC2		patients with advanced solid tumours	oral, 100 mg		Lymphocytopenia incidence	27.3%
C=CCNc1c(O)cc2c(O)c1C[C@@H](C)C[C@H](OC)[C@H](O)[C@@H](C)/C=C(\C)[C@H](OC(N)=O)[C@@H](OC)/C=C\C=C(/C)C(=O)N2		unresectable or metastatic sarcoma	intravenous, 300 mg/m^2, grade 3-4 lab change		patients with ALT increase	0%
N[C@@H]1c2ccccc2OC12CCN(c1cnc3c(N4CCCc5ncccc54)n[nH]c3n1)CC2		advanced solid tumour patients	oral, 100 mg once daily		patients with any TEAE	100%
CN1CC[C@@H](c2c(O)cc(O)c3c(=O)cc(-c4ccc(C(F)(F)F)cc4Cl)oc23)[C@@H]1CO	measured: Nausea	B-cell malignancies or AML	oral, 50 mg, continuous dosing		patients with adverse event	25%
O=C(Nc1ccccc1)C1CCN(C(=O)Oc2cccnc2)CC1	psychotropic effects VAS	healthy women	20 mg	relative to: pre-dose baseline, direction not given	change in Reality score	0.1
C[C@]1(CO)Cc2ncn(-c3ccc(C#N)c(Cl)c3)c2C(=O)O1		human, plasma	80 mg single dose, median		tmax	1 h
COC[C@@]12CC[C@H](OC)[C@]34C(C([C@H](OC)[C@H]13)[C@]1(OC(C)=O)[C@H]3[C@@H](OC(=O)c5ccccc5)[C@](O)(C[C@H]34)[C@@H](OC)[C@@H]1O)N(C)C2		Sprague-Dawley rat, plasma	oral, dose not given, in PCW extract		MRT(0-t)	3.62 ± 1.04 h
COc1cc2c(Oc3ccc4[nH]c(C)cc4c3F)ccnc2cc1OCC1(N)CC1		paediatric recurrent refractory sarcoma	12 mg		grade 1 or 2 Vomiting	18.2%
CO[C@H]1C[C@@H]2CC[C@@H](C)[C@@](O)(O2)C(=O)C(=O)N2CCCC[C@H]2C(=O)O[C@H]([C@H](C)C[C@@H]2CC[C@@H](OC(=O)NCCOCCOCCOCCOCCOCCOCCOCCOCCC(=O)N3CCc4cc(Cn5nc(-c6ccc7oc(N)nc7c6)c6c(N)ncnc65)ccc4C3)[C@H](OC)C2)C[C@@H](O)[C@H](C)/C=C(\C)[C@@H](O)[C@@H](OC)C(=O)[C@H](C)C[C@H](C)/C=C/C=C/C=C/1C	phase 1 dose escalation, measured: pneumonia	advanced solid tumour patients	intravenous, 6 mg weekly, grade ≥3		dose-reducing adverse events	0%
C[C@]1(O)C[C@@](N)(c2ccc(-c3nc4n(c3-c3ccccc3)COc3ccncc3-4)cc2)C1		human, advanced or metastatic solid tumours	16 mg once daily, phase I dose escalation		patients with serious AE	33.3%

Some of these lines once more:
Compound	test	test system	conditions	scale	endpoint	value
CO[C@H]1C[C@@H]2CC[C@@H](C)[C@@](O)(O2)C(=O)C(=O)N2CCCC[C@H]2C(=O)O[C@H]([C@H](C)C[C@@H]2CC[C@@H](OC(=O)NCCOCCOCCOCCOCCOCCOCCOCCOCCC(=O)N3CCc4cc(Cn5nc(-c6ccc7oc(N)nc7c6)c6c(N)ncnc65)ccc4C3)[C@H](OC)C2)C[C@@H](O)[C@H](C)/C=C(\C)[C@@H](O)[C@@H](OC)C(=O)[C@H](C)C[C@H](C)/C=C/C=C/C=C/1C	phase 1 dose escalation, measured: pneumonia	advanced solid tumour patients	intravenous, 6 mg weekly, grade ≥3		dose-reducing adverse events	0%
